Measurements gathered from unrelated publications.
Numbers after ± are the reported error.
Chain of UniProt O75116 (whole entry, looked up): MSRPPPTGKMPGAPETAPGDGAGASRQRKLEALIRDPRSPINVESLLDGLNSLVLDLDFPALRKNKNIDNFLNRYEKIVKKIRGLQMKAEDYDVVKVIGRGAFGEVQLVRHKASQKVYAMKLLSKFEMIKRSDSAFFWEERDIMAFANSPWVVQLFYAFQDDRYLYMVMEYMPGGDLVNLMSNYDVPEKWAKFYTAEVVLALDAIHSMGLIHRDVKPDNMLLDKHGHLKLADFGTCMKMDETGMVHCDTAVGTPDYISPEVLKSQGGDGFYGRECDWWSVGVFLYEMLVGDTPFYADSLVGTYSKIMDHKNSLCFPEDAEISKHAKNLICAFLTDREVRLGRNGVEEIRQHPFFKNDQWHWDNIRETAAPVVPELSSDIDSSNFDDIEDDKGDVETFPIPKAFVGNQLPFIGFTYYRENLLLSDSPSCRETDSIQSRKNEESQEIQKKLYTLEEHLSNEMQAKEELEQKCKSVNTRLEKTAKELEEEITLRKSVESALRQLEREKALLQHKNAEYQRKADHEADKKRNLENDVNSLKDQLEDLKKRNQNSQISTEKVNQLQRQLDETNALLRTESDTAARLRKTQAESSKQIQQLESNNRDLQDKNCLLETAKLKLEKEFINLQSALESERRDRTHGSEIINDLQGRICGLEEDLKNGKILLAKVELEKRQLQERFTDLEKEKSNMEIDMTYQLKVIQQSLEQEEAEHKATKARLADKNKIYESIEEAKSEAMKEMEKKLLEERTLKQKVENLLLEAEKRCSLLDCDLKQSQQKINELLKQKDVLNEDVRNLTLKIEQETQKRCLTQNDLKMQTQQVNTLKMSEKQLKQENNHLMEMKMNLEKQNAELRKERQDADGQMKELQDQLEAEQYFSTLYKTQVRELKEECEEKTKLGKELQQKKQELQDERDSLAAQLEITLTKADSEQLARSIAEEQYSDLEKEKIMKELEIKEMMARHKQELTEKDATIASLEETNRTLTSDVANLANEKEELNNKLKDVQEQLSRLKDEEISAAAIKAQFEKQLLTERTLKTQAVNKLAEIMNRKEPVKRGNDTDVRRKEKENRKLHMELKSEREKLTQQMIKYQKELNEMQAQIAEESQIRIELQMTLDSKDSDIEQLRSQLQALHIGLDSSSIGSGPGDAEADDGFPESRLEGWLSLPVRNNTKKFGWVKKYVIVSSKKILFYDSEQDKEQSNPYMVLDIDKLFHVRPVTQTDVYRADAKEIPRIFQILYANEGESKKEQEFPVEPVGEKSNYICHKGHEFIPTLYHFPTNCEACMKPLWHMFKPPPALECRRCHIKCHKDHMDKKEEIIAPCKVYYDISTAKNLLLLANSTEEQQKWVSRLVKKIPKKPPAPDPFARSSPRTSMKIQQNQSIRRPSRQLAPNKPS

CC(C)(C)c1cc(-n2nc3ccccc3n2)c(O)c(C(C)(C)C)c1
mean daily dermal uptake (exposure assessment; human, age 1-2 years; spray sunscreen): 6.92 ng/kg body weight/day

CN1CC[C@@H](c2c(O)cc(O)c3c(=O)cc(-c4ccc(C(F)(F)F)cc4Cl)oc23)[C@@H]1CO
patients with adverse event (measured: Thrombocytopenia; relapsed B-cell malignancies; oral, 100 mg, grade 3-4, intermittent dosing): 0%

CC(C)C[C@@H]1NC(=O)[C@H](CC(N)=O)NC(=O)[C@H](CCCNC(=N)N)NC(=O)[C@H]([C@@H](C)O)NC(=O)[C@@H]2CSSC[C@@H]3NC(=O)[C@H]([C@@H](C)O)NC(=O)CNC(=O)CNC(=O)[C@H](C(C)C)NC(=O)[C@@H]4CSSC[C@H](NC(=O)[C@H](CCCCN)NC(=O)[C@H](CSSC[C@H](NC(=O)[C@H](C(C)C)NC(=O)[C@@H]5CCCN5C(=O)[C@H](CC(C)C)NC1=O)C(=O)NCC(=O)N[C@@H](CCC(=O)O)C(=O)N[C@@H]([C@@H](C)O)C(=O)N4)NC(=O)CNC(=O)[C@@H]1CCCN1C(=O)[C@H]([C@@H](C)O)NC(=O)[C@H](CC(N)=O)NC3=O)C(=O)N[C@@H](CO)C(=O)N[C@@H](Cc1c[nH]c3ccccc13)C(=O)N1CCC[C@H]1C(=O)N[C@@H](C(C)C)C(=O)N2
remaining peptide (HPLC; ammonium bicarbonate 0.1 M; 180 µM, 14 days, pH 9.0, 37 °C, deamidation stability): 90.1 ± 4.5%

C=CC(=O)Nc1cc(Nc2ncc(C(=O)OC(C)C)c(-c3cn(C)c4ccccc34)n2)c(OC)cc1N(C)CCN(C)C
tolerability (measured: body weight; tumour-bearing mice; all doses tested): not toxic

Nc1nc2cc(-c3ccc4ncc(C(=O)N5CCOCC5)n4c3)ccc2o1
patients with adverse event (measured: Fatigue; advanced solid tumour patients; dose not given): 4%

COc1cc2c(Oc3ccc4[nH]c(C)cc4c3F)ccnc2cc1OCC1(N)CC1
incidence of adverse event (measured: grade 1 or 2 bone pain; paediatric high-risk refractory sarcoma; 8 mg): 6.7%

N.N.[Cl][Pt][Cl]
γ-GTP (nude mice, serum; dose not given, 10 days): < 6 U/L

N=C(N)NCCC[C@@H](NC(=O)[C@@H](N)Cc1ccccc1)C(=O)N[C@@H](Cc1ccccc1)C(=O)N[C@@H](CCCCN)C(N)=O
AUC(0-inf) (early Huntington's disease patients, plasma; subcutaneous, 25 mg daily, day 7, median): 5270 ng·h/mL

O=C(Nc1ccccc1)C1CCN(C(=O)Oc2cccnc2)CC1
subjects with tremor (adverse event reporting; healthy women; oral, 100 mg): 7.7%

Clc1ccc(Cl)c(-c2cc(Cl)c(Cl)cc2Cl)c1
log K(PDMS-water) (fresh water; 20 °C): 5.98 ± 0.04

CCCCCCCCCCCCCCCC(=O)N[C@@H](CCC(=O)NCCCC[C@H](NC(=O)[C@H](CC(=O)O)NC(=O)[C@H](CO)NC(=O)[C@@H](NC(=O)[C@H](Cc1ccccc1)NC(=O)[C@@H](NC(=O)CNC(=O)[C@H](CCC(N)=O)NC(=O)[C@H](CO)NC(=O)[C@@H](N)Cc1c[nH]cn1)[C@@H](C)O)[C@@H](C)O)C(=O)N[C@@H](CO)C(=O)N[C@@H](CCC(=O)O)C(=O)N[C@@H](Cc1ccc(O)cc1)C(=O)N[C@@H](CC(C)C)C(=O)N[C@@H](CC(=O)O)C(=O)N[C@@H](CO)C(=O)N[C@@H](CCC(=O)O)C(=O)N[C@@H](CCCNC(=N)N)C(=O)N[C@@H](C)C(=O)N[C@@H](CCCNC(=N)N)C(=O)N[C@@H](CC(=O)O)C(=O)N[C@@H](Cc1ccccc1)C(=O)N[C@H](C(=O)N[C@@H](C)C(=O)N[C@@H](Cc1c[nH]c2ccccc12)C(=O)N[C@@H](CC(C)C)C(=O)N[C@@H](CCC(=O)O)C(=O)N[C@@H](C)C(=O)NCC(=O)NCC(=O)O)C(C)C)C(=O)O
treatment-related adverse events (human, CrCl ≥30 to <45 mL/min; sc, 100 µg single dose): 72.7%

C[C@@H](NC(=O)N1C(=O)[C@H](Cc2ccnc(N)c2)[C@H]1C(=O)O)C1CCCCC1
drug-related decreased neutrophil (healthy Chinese adult volunteers; continuous intravenous infusion, dose not given, 5.0 days, CTCAE 5.0, all doses): 0%

[O-][S+]1CCc2nc(N3CCC(c4ncc(Cl)cn4)CC3)nc(NC3(CO)CCC3)c21 (stereo not shown)
adverse event incidence (measured: nervous system disorders; healthy male humans; 48 mg single dose): 50%

Cn1cncc1-c1c(F)cncc1NC(=O)c1c(N)nn2cc(F)cnc12
platelet count decreased DLT (human patients; oral, 150 mg twice daily, 4 days per 3 days, 21 days): 0%

COc1ccc2nc3cc(Cl)ccc3c(Nc3cc(CN4CCCC4)c(O)c(CN4CCCC4)c3)c2n1
lymphocytes (mouse, blood; oral, 57 mg/kg, tolerability, mean): 75.1%

CCN(CCO)CCCC(C)Nc1ccnc2cc(Cl)ccc12 (stereo not shown)
neutrophil count decreased patients (newly diagnosed glioblastoma patients; oral, 400 mg/dose, grade 4, added: radiotherapy plus temozolomide): 33%

Clc1ccc(-c2cc(Cl)c(Cl)c(Cl)c2Cl)cc1Cl
log K(PDMS-water) (fresh water; 20 °C, SSP sampler, 100 µm): 6.17 ± 0.11

COc1ncccc1-c1cnn2ccc(N3CCN(C(=O)OC(C)C)CC3)nc12
free drug concentration (rat, thermal hyperalgesia model, plasma; oral, 0.3 mg/kg, 180 min): 1 nM

CCOc1cc(Oc2ccc(C(F)(F)F)cc2Cl)ccc1[N+](=O)[O-]
final body weight (rat, male; 500 mg/kg, 4 days): 94.5 ± 4.6 g

CC(C)NCCCC[C@@H]1NC(=O)[C@H](Cc2ccc(O)cc2)NC(=O)[C@H](Cc2ccccc2)NC(=O)CC[C@H](C(=O)N[C@@H](CCCCNC(C)C)C(=O)N[C@@H](CCCCNC(=O)[C@H](CCC(=O)O)NC(=O)[C@H](CCC(=O)O)NC(=O)[C@H](CCC(=O)O)NC(=O)CN2CCN(CC(=O)O)CCN(CC(=O)O)CC2)C(N)=O)NC(=O)CNC(=O)[C@H](Cc2ccc3ccccc3c2)NC(=O)[C@@H](CCCNC(=N)N)NC1=O [fluorine-18 labelled]
parent fraction (rhesus macaque, plasma; 10 min post-injection): 63.5%

CC(C)(O)c1cc(Nc2cc(Oc3cn(C4CC4)nc3C3CCOCC3)ccn2)ccn1
treatment-emergent adverse events (measured: Nausea; Japanese patients with advanced cancer; oral, dose not given, any grade): 44%

CC/C(=C(\c1ccccc1)c1ccc(OCCN(C)C)cc1)c1ccccc1
elimination rate constant (CD-1 mouse, male, lung; intraperitoneal, 30 mg/kg): 2.68e-05 s⁻¹

CN1CCN(c2ccc(Nc3nccc(-c4ccc(Cl)cc4)n3)cc2C(F)(F)F)CC1
toxicity (zebrafish embryos; 25 µM, 5 d): 0%

O=S(=O)(Nc1ccccc1)c1ccc(NC(=S)Nc2ccccc2)cc1
relative organ weight (mouse, male, large intestine; oral, 80 mg/kg daily, 14 days; baseline: body weight): 0.77%

O.O.O.O.O.O.[Cl-].[Cl-].[Co+2]
reticulocytes (Crl:CD(SD) rat male, blood; oral, 7.44 mg Co/kg/day, 90 days; baseline: red blood cells): 10.5%

C[C@@H]1NC(=O)[C@H](CCCCNC(=O)CO/N=C/C(=O)NCCCC[C@@H]2NC(=O)[C@@H](Cc3ccccc3)NC(=O)[C@H](CC(=O)O)NC(=O)CNC(=O)[C@H](CCCNC(=N)N)NC2=O)NC(=O)CNC(=O)[C@@H]2CCCN2C(=O)[C@H](CCCCNC(=O)CO/N=C/C(=O)NCCCC[C@@H]2NC(=O)[C@@H](Cc3ccccc3)NC(=O)[C@H](CC(=O)O)NC(=O)CNC(=O)[C@H](CCCNC(=N)N)NC2=O)NC(=O)[C@H](CCCCNC(=O)[C@H](CCCCN)NC(=O)[C@H](Cc2ccccc2)NC(=O)CNC(=O)CN2CCCNCCNCCCNCC2)NC(=O)[C@H](CCCCNC(=O)CO/N=C/C(=O)NCCCC[C@@H]2NC(=O)[C@@H](Cc3ccccc3)NC(=O)[C@H](CC(=O)O)NC(=O)CNC(=O)[C@H](CCCNC(=N)N)NC2=O)NC(=O)CNC(=O)[C@@H]2CCCN2C(=O)[C@H](CCCCNC(=O)CO/N=C/C(=O)NCCCC[C@@H]2NC(=O)[C@@H](Cc3ccccc3)NC(=O)[C@H](CC(=O)O)NC(=O)CNC(=O)[C@H](CCCNC(=N)N)NC2=O)NC1=O [copper-64 labelled]
tissue uptake (normal mice, intestine; intravenous, 0.74 MBq, 24 h post-injection): 1.04 ± 0.05 %ID/g

CC(=O)c1c(C)c2cnc(Nc3ccc(C4CCN(CCS(C)(=O)=O)CC4)cn3)nc2n(C2CCCC2)c1=O
patients with Hypertriglyceridemia (HR+/HER2- advanced breast cancer patients; oral, dose not given, all grades,, total): 22.2%

CC(C)C[C@@H]1NC(=O)CNC(=O)[C@H](CC(N)=O)NC(=O)[C@H](CCCNC(=N)N)NC(=O)[C@H]([C@@H](C)O)NC(=O)[C@@H]2CSSC[C@@H]3NC(=O)[C@H]([C@@H](C)O)NC(=O)CNC(=O)CNC(=O)[C@H](C(C)C)NC(=O)[C@@H]4CSSC[C@H](NC(=O)[C@H]([C@@H](C)O)NC(=O)[C@H](CSSC[C@H](NC(=O)[C@H](C(C)C)NC(=O)[C@@H]5CCCN5C1=O)C(=O)NCC(=O)N[C@@H](CCCCN)C(=O)N[C@@H]([C@@H](C)O)C(=O)N4)NC(=O)CNC(=O)[C@@H]1CCCN1C(=O)[C@H]([C@@H](C)O)NC(=O)[C@H](CC(N)=O)NC3=O)C(=O)N[C@@H](CO)C(=O)N[C@@H](Cc1c[nH]c3ccccc13)C(=O)N1CCC[C@H]1C(=O)N[C@@H](C(C)C)C(=O)N2
remaining peptide (HPLC; ammonium bicarbonate; 180 µM, 14 days, pH 9.0, 25 °C, deamidation stability): 63.9 ± 0.5%

Clc1cc2c(cc1Cl)Oc1cc(Cl)c(Cl)cc1O2
relative gonadal white adipose weight (female Sprague-Dawley rat; 10 µg/kg, every 28 d for 4 d; baseline: vehicle): 2 fold

C[C@H]1CN(c2n[nH]c3nc(N[C@H]4CC[C@H](NS(=O)(=O)CCC(F)(F)F)CC4)ncc23)CCO1
relative abundance (Rho-associated protein kinase 2 (ROCK2, Homo sapiens, UniProt O75116); inhibitor, Kinobeads competition profiling; 20 µM; baseline: vehicle): 1.08

c1ccc2cc3c(cc2c1)-c1cccc2cccc-3c12
log K(PDMS-water) (fresh water; 12 (unit not given), 20 °C): 5.22 ± 0.05

C[C@]1(CO)Cc2ncn(-c3ccc(C#N)c(Cl)c3)c2C(=O)O1
subjects with drug-related somnolence (human; 10 mg multiple doses, fasted): 0%

CC1=C(O)C(=O)C=C2C1=CC=C1[C@@]2(C)CC[C@@]2(C)[C@@H]3C[C@](C)(C(=O)O)CC[C@]3(C)CC[C@]12C
maximal brain concentration (Sprague-Dawley rat male, neocortex; intraperitoneal, dose not given): < 3 ng/mL

NC(=NCc1ccccc1)NC(=O)c1nc(Cl)c(N)nc1N
IC50 (Plasmodium falciparum; GB4): 3.16 µM

Some of these lines once more:
CC(C)C[C@@H]1NC(=O)[C@H](CC(N)=O)NC(=O)[C@H](CCCNC(=N)N)NC(=O)[C@H]([C@@H](C)O)NC(=O)[C@@H]2CSSC[C@@H]3NC(=O)[C@H]([C@@H](C)O)NC(=O)CNC(=O)CNC(=O)[C@H](C(C)C)NC(=O)[C@@H]4CSSC[C@H](NC(=O)[C@H](CCCCN)NC(=O)[C@H](CSSC[C@H](NC(=O)[C@H](C(C)C)NC(=O)[C@@H]5CCCN5C(=O)[C@H](CC(C)C)NC1=O)C(=O)NCC(=O)N[C@@H](CCC(=O)O)C(=O)N[C@@H]([C@@H](C)O)C(=O)N4)NC(=O)CNC(=O)[C@@H]1CCCN1C(=O)[C@H]([C@@H](C)O)NC(=O)[C@H](CC(N)=O)NC3=O)C(=O)N[C@@H](CO)C(=O)N[C@@H](Cc1c[nH]c3ccccc13)C(=O)N1CCC[C@H]1C(=O)N[C@@H](C(C)C)C(=O)N2
remaining peptide (HPLC; ammonium bicarbonate 0.1 M; 180 µM, 14 days, pH 9.0, 37 °C, deamidation stability): 90.1 ± 4.5%

C=CC(=O)Nc1cc(Nc2ncc(C(=O)OC(C)C)c(-c3cn(C)c4ccccc34)n2)c(OC)cc1N(C)CCN(C)C
tolerability (measured: body weight; tumour-bearing mice; all doses tested): not toxic
